Published values gathered from unrelated publications.
Nuclear receptor subfamily 2 group C member 2 ligand-binding domain: Nuclear receptor subfamily 2 group C member 2, ligand-binding domain (Homo sapiens, UniProt P49116)
Sequence of UniProt P49116 (whole entry, looked up): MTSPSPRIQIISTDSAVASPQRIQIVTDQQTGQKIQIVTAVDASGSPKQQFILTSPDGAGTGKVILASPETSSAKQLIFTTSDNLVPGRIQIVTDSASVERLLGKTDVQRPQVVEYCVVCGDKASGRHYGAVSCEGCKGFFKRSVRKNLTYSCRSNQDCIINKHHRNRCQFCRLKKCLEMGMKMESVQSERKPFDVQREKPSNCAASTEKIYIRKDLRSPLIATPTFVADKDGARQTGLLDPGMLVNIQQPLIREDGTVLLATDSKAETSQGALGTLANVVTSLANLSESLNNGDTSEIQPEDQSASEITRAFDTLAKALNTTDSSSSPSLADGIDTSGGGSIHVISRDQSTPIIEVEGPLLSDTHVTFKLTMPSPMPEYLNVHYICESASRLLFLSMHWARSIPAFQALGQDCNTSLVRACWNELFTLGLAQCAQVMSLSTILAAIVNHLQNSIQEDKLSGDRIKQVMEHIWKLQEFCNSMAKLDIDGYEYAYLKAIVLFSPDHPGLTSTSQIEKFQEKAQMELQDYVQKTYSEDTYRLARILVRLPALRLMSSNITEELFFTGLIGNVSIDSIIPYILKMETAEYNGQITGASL

| Structure (SMILES) | tested on | test | test system | setting | scale | measurement | result |
| --- | --- | --- | --- | --- | --- | --- | --- |
| C[C@@H](N)c1cc(Cl)ccc1Cn1c(=S)[nH]c(=O)c2[nH]ccc21 |  |  | human matched controls | oral, 2.5 mg single dose |  | drug-related adverse events | 0% |
| Cc1ccc([C@@H]2O[C@H](CO)[C@@H](O)[C@H](O)[C@H]2O)cc1Cc1ccc(-c2ccc(F)cc2)s1 |  |  | Japanese type 2 diabetes patients | 200 mg, day 17, 24 h urine collection | relative to: baseline | urinary sodium excretion change | -14.6 mEq |
| CC(C)[C@H](N)C(=O)NCCCS(=O)(=O)O |  |  | human both sexes, plasma | oral, 340 mg once daily days 8-14, day 14, fasted capsule |  | AUC(0-24) | 13800 ng·h/mL |
| OCCc1ccc(O)cc1 |  |  | human plasma | mean |  | plasma concentration | 2230 nM |
| Cn1cc(Nc2nccc(-c3ccc4c(c3)CN(C3COC3)CC[C@H]4NC(=O)c3cn(C(C)(C)C)nn3)n2)cn1 |  |  | human, whole blood | 300 mg twice daily, day 14 | relative to: pre-dose baseline | NK cell count change | 22.7% |
| Cc1nnc(NS(=O)(=O)c2ccc(N)cc2)s1 | Nuclear receptor subfamily 2 group C member 2 ligand-binding domain | SPR imaging |  |  |  | Kd | 0.0552 nM |
| CCc1nc(C(N)=O)c(Nc2ccc(N3CCC(N4CCN(C)CC4)CC3)c(OC)c2)nc1NC1CCOCC1 |  |  | Japanese patients, plasma | oral, 40 mg, cycle 1 day 28, multiple doses, mean | relative to: single dose | accumulation ratio (AUC) | 5.86 |
| O=c1ncccn1[C@@H]1O[C@H](CO)[C@@H](O)[C@H]1O | OCI-Ly1 |  |  | 1 µM, 120 h |  | viability | 165% |
| CCCCC1=NC2(CCCC2)C(=O)N1Cc1ccc(-c2ccccc2S(=O)(=O)Nc2noc(C)c2C)c(COCC)c1 |  |  | healthy adult volunteers, plasma | oral, 400 mg, single dose, fed, crushed tablet |  | Tmax | 5.61 h |
| CCCn1cc(C)c2c(=O)[nH]c(-c3cc(S(=O)(=O)N4CCN(CC)CC4)ccc3OCC)nc21 |  |  | human | concentration not given |  | number of treatment-related AEs | 40 |
| Cc1c(Cl)c(C)[n+]([O-])c(Cl)c1-c1noc(-c2cc(O)c(O)c([N+](=O)[O-])c2)n1 |  |  | healthy Chinese subjects | oral, 50 mg, 20 days |  | TEAE incidence | 13.3% |
| CC(=O)O[C@H]1C[C@@]2(C)[C@@H](C[C@@H](O)[C@H]3[C@@]4(C)CC[C@@H](O)[C@@H](C)[C@@H]4CC[C@@]32C)/C1=C(\CCC=C(C)C)C(=O)O |  | starch gel membrane permeability | Gram-negative envelope surrogate | 200 µM, 30 min, pH 7.4 |  | amount permeated | 0.18 nmol |
| Cc1cc(C)c(CNC(=O)c2cc(Cl)c3c(c2C)O[C@@](C)([C@H]2CC[C@H](N(C)C)CC2)O3)c(=O)[nH]1 |  |  | human relapsed/refractory NHL | oral, 200 mg once daily, onset after cycle 1 day 1 |  | febrile neutropenia grade ≥3 | 4.2% |
| C[C@H]1CN(C(=O)CC#N)[C@]12CCN(c1ncnc3[nH]ccc13)C2 |  |  | healthy adults, plasma | oral, 12 mg single dose, geometric mean |  | t1/2 | 2.8 h |
| O=C(CCc1ccc(O)cc1)c1c(O)cc(O)cc1O |  |  | human plasma | mean, both sexes |  | plasma concentration | 5780 nM |
| NC1(C(=O)N[C@@H](CCO)c2ccc(Cl)cc2)CCN(c2nc[nH]c3nccc2-3)CC1 |  |  | metastatic CRPC patients | dose not given, any grade, treatment-related, all doses, together with: enzalutamide 160 mg daily |  | incidence of Dysgeusia | 6.7% |
| O=c1oc2cc(O)ccc2c2ccccc12 |  |  | human plasma | mean |  | plasma concentration | 380 nM |
| OC[C@H]1O[C@@H](c2ccc(F)c(Cc3cc4ccccc4s3)c2)[C@H](O)[C@@H](O)[C@@H]1O |  |  | Japanese patients, type 1 diabetes | oral, 25 mg/day, onset day 10 | relative to: patients | hypoglycaemia-related adverse event | 5% |
| Nc1ncnc2c1ncn2[C@@H]1C=C(CO)[C@@H](O)[C@H]1O | OCI-Ly1 |  |  | 0.5 µM, 120 h |  | viability | 2.84% |
| C=CCN1CC(=O)N2[C@@H](Cc3ccc(O)cc3F)C(=O)N(Cc3cccc(N4CC(N5CCN(CC)CC5)C4)n3)C[C@@H]2N1C(=O)NCc1ccccc1 |  |  | advanced solid tumour patients | oral, 100 mg twice daily, grade ≥3, dose-escalation |  | treatment-related ALT increased | 0% |
| Cc1cc(-c2nccc3c2ccn3CC(=O)Nc2ccc(-c3cnccn3)cn2)ccn1 |  |  | human | 5 mg once daily, multiple ascending dose |  | foreign body sensation | 0% |
| CC(=O)N(C)[C@H]1CCN(C(=O)c2cnc3c(c2)C[C@](C)(c2ccc(F)cc2)N3)C1 |  |  | human | dose not given |  | alanine aminotransferase | 196 U/L |
| C[C@@](Cc1ccc(O)c(O)c1)(NN)C(=O)O | Nuclear receptor subfamily 2 group C member 2 ligand-binding domain | SPR imaging |  |  |  | Kd | 15.4 nM |

Excerpt of the above:
| Structure (SMILES) | tested on | test | test system | setting | scale | measurement | result |
| --- | --- | --- | --- | --- | --- | --- | --- |
| CCCCC1=NC2(CCCC2)C(=O)N1Cc1ccc(-c2ccccc2S(=O)(=O)Nc2noc(C)c2C)c(COCC)c1 |  |  | healthy adult volunteers, plasma | oral, 400 mg, single dose, fed, crushed tablet |  | Tmax | 5.61 h |
| C[C@@](Cc1ccc(O)c(O)c1)(NN)C(=O)O | Nuclear receptor subfamily 2 group C member 2 ligand-binding domain | SPR imaging |  |  |  | Kd | 15.4 nM |
